{"data": "Measurements pooled from the literature"}
{"Compound": "CNC(=O)c1cc(Oc2ccc(NC(=O)Nc3cc(C(C)(C)C)nn3-c3ccc4ncccc4c3)c(F)c2)ccn1", "system": "human, trial", "setting": "oral, dose not given, all doses", "endpoint": "patients with related serious Nausea AE", "value": "2%"}
{"Compound": "Cn1cncc1-c1c(F)cncc1NC(=O)c1c(N)nn2cc(F)cnc12", "system": "human patients", "setting": "oral, dose not given, all doses", "endpoint": "patients grade ≥3 Neutrophil count decrease", "value": "7%"}
{"Compound": "C[C@]1(O)C[C@@](N)(c2ccc(-c3nc4n(c3-c3ccccc3)COc3ccncc3-4)cc2)C1", "system": "human, advanced or metastatic solid tumours", "setting": "20 mg once daily, phase I dose escalation", "endpoint": "patients with Hyperglycemia TEAE", "value": "16.7%"}
{"Compound": "COc1ncnn2ccc(-c3cnc4nc(C)n(Cc5nnc([C@@H](C)F)o5)c4c3)c12", "system": "human", "setting": "oral, dose not given, grade 5", "endpoint": "patients with diarrhea", "value": "0%"}
{"Compound": "CCCc1ccc(OCC(=O)N(Cc2nc(-c3cccnc3)no2)C(C)C)cc1", "target or system": "human coronavirus OC43", "assay": "virus-induced cell killing", "system": "MRC-5", "setting": "screen", "endpoint": "maximum inhibition", "value": "9.92%"}
{"Compound": "O=C1Nc2cc3[nH]nc(-c4ccncc4)c3cc2CN1Cc1ccccc1", "assay": "CTCAE v4.03", "system": "human, relapsed or refractory advanced solid tumours", "setting": "intravenous, 4.8 mg/kg", "endpoint": "patients with QTc prolongation", "value": "0%"}
{"Compound": "COc1ccc(-c2c(-c3ccc(C#N)c(F)c3)nc(N3CCC(N)CC3)n(C)c2=O)cc1F", "assay": "item: portal vein thrombosis", "system": "human patients", "setting": "oral, 60 mg, dose expansion", "endpoint": "patients with serious TEAE", "value": "0%"}
{"Compound": "C=CC(=O)Nc1cc(Nc2nccc(Nc3cc(Cl)c(F)cc3C(C)(C)O)n2)c(OC)cc1N1CC[C@@H](N(C)C)C1", "system": "human patients", "setting": "oral, 50 mg, treatment-emergent adverse events", "endpoint": "patients with AST increased", "value": "16.7%"}
{"Compound": "C[C@@H]1OC(=O)NN=C1c1ccc(-c2ccc(F)cc2)c(C(F)(F)F)c1", "assay": "phase I trial, item: abdominal distension worst grade 1", "system": "human patients", "setting": "20 mg loading then 1 mg daily", "endpoint": "patients with adverse event", "value": "50%"}
{"Compound": "Cc1cn([C@H]2O[C@@H](CO[P@@](=O)(N[C@@H](C)C(=O)OC(C)C)Oc3ccccc3)[C@H](O)[C@H]2F)c(=O)[nH]c1=O", "assay": "item: ALT/AST elevated", "system": "human", "setting": "50 mg", "endpoint": "patients with TEAE", "value": "0%"}
{"Compound": "CN(C)C(=O)c1cc2cnc(Nc3ccc(N4CCNCC4)cn3)nc2n1C1CCCC1", "assay": "item: QT interval prolongation", "system": "human, HR+/HER2− advanced breast cancer", "setting": "oral, dose not given, grade 3, CTCAE v4.03", "endpoint": "patients with adverse event", "value": "1.8%"}
{"Compound": "Cc1onc(C(=O)N2CCN(C(c3ccc(Cl)cc3)c3ccc(Cl)cc3)CC2)c1[N+](=O)[O-]", "target or system": "human coronavirus OC43", "assay": "virus-induced cell killing", "system": "MRC-5", "setting": "screen", "endpoint": "maximum inhibition", "value": "11.5%"}
